Published values of several laboratories.
Parts stem from different laboratories: compare values within a part only. ± gives the spread as reported.
Sequence of UniProt O75385 (whole entry, looked up): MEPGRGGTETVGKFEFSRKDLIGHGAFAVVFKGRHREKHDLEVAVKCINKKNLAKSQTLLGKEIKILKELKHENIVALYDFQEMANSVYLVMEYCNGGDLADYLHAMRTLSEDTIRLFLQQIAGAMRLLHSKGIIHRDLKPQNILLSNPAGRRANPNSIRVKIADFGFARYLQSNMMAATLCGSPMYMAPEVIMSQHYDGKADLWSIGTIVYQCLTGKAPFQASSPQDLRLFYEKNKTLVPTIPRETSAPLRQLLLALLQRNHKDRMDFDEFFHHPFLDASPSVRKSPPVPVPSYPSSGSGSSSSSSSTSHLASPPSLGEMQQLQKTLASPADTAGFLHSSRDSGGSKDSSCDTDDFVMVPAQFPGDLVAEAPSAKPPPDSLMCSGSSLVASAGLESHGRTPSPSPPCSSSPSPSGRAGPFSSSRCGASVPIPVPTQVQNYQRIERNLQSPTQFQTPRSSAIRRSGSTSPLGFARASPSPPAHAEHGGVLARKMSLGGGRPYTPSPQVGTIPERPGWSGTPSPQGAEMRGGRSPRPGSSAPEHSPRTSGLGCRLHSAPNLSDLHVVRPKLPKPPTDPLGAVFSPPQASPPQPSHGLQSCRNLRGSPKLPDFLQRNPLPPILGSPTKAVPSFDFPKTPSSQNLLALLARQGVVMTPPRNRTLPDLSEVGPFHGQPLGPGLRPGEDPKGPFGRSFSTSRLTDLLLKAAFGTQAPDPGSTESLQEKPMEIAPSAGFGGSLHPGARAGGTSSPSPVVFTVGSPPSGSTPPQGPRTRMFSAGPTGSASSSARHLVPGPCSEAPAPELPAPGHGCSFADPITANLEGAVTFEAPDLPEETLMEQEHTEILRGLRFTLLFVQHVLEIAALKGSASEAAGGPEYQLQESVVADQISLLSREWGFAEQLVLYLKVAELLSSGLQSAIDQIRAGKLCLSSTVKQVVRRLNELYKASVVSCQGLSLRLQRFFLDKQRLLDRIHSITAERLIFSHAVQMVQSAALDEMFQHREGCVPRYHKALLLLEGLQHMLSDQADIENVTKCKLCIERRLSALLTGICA

Block 1 — method: EMSA with sequencing; form: double-stranded DNA, one strand shown; matrix: in vitro; tested at: 10 and 20 nM; relative to: negative control set to 0; direction: higher = stronger binding
Target: Hepatocyte nuclear factor 3-alpha (Foxa1, Mus musculus, UniProt P35582, residues 1-468, full length assumed)
Sequence of UniProt P35582 (whole entry, looked up): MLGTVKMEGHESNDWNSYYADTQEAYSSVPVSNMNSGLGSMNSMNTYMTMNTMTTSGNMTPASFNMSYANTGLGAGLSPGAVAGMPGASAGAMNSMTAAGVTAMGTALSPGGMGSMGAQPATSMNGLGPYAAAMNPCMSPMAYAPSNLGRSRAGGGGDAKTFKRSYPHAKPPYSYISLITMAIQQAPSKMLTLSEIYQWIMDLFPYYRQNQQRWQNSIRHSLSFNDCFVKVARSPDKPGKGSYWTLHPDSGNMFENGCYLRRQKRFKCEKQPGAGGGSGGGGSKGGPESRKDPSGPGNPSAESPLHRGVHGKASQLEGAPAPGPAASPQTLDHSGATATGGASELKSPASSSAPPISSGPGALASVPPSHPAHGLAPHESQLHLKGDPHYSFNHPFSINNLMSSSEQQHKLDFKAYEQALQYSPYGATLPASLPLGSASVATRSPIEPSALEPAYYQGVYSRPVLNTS
Notes: whole designed probe, mean of two concentrations, ends assumed
Shared flanks, not repeated: GTGAGCGGTGCCCATTGATGGGGAAC … TTTCACTGGGATCGTGGGGAC
Strand	normalised bound fraction
CAATGGGGTAGGTCAGCCCCAGTGAACTCTCAAATGACCACTGAAGGACGTAGTGAGTGCAGAGTGTGATACCACTCACATCCCAGCCCAGACTGTTTGCTCAGCTGGGAGGAGTGTTGCAATTCTTCTACGTGCAGAGATAACACCCCTTCTCATGGCTTCAGGCATCACCTATCTCCTCTAGGCTGCGCTC	0.198 ratio
ATCTTCCCCCTCTTCCTTGCCCCACCAGCTCACCTACGGGGGTTATTTGCACAAAGGAAAATAAATAAAGCCGGCATTCGTTAACCCTCTTCACGCGCATACTGCTGTTTGCTCTGCATCTAACATGGTCCTTACGCGACGCCAGGCTCCGGGAGAGCAAAGCACCGTGTCAGGCGCATGATCCGGGCTCGCC	0.392 ratio
ATCTTCCCCCTCTTCCTTCACTCCCTCCCTAACCCCGGCGGGTTATTTGCAGATAGGAAAATAAATAAAGCCGGCATTCGTTAACCCTCTTCTGGCGCAAACTGCTGTTTGCTCTGGATGAATCATGGTCCTTTGGCGACGCCAGGCTCCGGGAGAGCAAAGCACCGTGTCAGGGCCATGATCCGGGGTGGCC	0.312 ratio
ATTGTACCTAGCTTCAATACAGTTATCTAAACCAGGAAAATGGTTTTCTGACTGTATTAGTCGCCTAGGGCTGCTTTAATAGGTCTTGCAAAAGTACACATATACTTGTCTTATGACTCAGCAATTCCACCGTTAGTATTTACCCCAAAATGATAAGCAATTCTGCAAATATGCTTCAGTTTACATATTTAGA	0.143 ratio
ATCTTCCCCCTCTTCCTTGCCCCACCAGCTCACCTTCCCGGGTTATTTGCAGATAGGAAAATAAATAAAGCCGGCATTCGTTAACCCTCTTCACGCGCATACTGCTGTTTGCTCTGCATCTAACATGGTCCTTACGCGAGGCGTGGCTCCGGGAGAGCAAAGCACCGTGTCAGGCGCATGATCCGGGGTGGCC	0.352 ratio
GTTTCGAGATATGGCATAAACTTTCAAGCTGAGTAAATGGTAGAAAGGTTAGCCAAGTCAACTTGGGGGTCGAATTTTAAGGAAATCTCAAAGTAAACAAGCTAATCTATAGGAAGTGAGAGATAATTTTAGTATTGCTGAACTTTCACATTCTTGTAAATTCCACTGGAGCGCATGGCTTTGCAGGAGCAGT	0.231 ratio
AGTGCTTCATTTTTCGTGCCCGCCCCGCGCCCCGGGCAGGCCAGTCATGTGTTAAGTTGCGCTTCTTTGCTGTGATGTGGGTGGGGGAGGAAGAGTAAACACAGTGCTGGCTCGGCTGCCCTGAGGGTGCTCAATCAAGCACAGGTTTCAAGTCTGGGTTCTGGTGTCCACTCACCCACCCCACCCCCCAAAA	0.309 ratio
ATCTTCCCCCTCTTCCTTGCCCCACCAGCTCACCTTCCCGGGTATCTGCAAATAAGTATTTATTTTCAAGCCGGCATTCGTTAACCCTCTTCACGCGCATACTGCTGTTTGCTCTGGATCTAACATGGTCCTTTGGCGACGCCAGGCTCCGGGAGAGCAAAGCACCGTGTCAGGGCCATGATCCGGGGTGGCC	0.199 ratio

Block 2 — method: RNAcompete; form: RNA; matrix: in vitro; tested at: 20 nM; notes: 7-mer, probes averaged, single round; relative to: mean of 7-mers; direction: higher = stronger binding
Target: PABPC1L2, full length, GST fusion (mouse, UniProt A0ABA7IW68)
Target sequence (chain): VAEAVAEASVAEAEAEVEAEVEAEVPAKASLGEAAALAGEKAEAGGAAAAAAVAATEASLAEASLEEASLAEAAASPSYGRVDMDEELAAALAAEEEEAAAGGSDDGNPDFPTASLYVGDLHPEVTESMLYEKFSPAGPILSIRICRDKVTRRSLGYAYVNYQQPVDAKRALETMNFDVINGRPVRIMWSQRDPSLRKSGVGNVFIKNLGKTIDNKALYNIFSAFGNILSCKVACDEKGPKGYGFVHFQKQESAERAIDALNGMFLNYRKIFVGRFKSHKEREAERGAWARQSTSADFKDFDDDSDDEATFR
Strand	7-mer Z-score
UCCUAAU	-0.295
UGGGAGG	0.225
GUAAGCA	0.111
UGUGCAA	0.0478
GGCAUCU	0.0605
UAUCCCA	-0.376
UACAUGA	-0.0174
CGCGCUA	-0.291

Other studies, line by line
SMILES	target	effect on	action	tested at	relative to	remaining activity
COc1cc(C(=O)N2CCC(N3CCN(C)CC3)CC2)ccc1Nc1ncc2c(n1)N(C)c1ccccc1C(=O)N2C	MNK2	kinase activity	–	10 µM	–	22 ± 14%
Oc1cccc(-c2nc(N3CCOCC3)c3oc4ncccc4c3n2)c1	Serine/threonine-protein kinase ULK1 (ULK1, Homo sapiens, UniProt O75385)	enzyme activity	inhibitor	0.5 µM	control	113%

Repeated from above (block 2):
Strand	7-mer Z-score
UGGGAGG	0.225
GUAAGCA	0.111
